Measurements pooled from the literature.
Parts stem from different laboratories: compare values within a part only.

Block 1
Target: Prothrombin, mature alpha-thrombin (F2, Homo sapiens, UniProt P00734)
Technique: aptamer microarray, sandwich
Form: DNA with 2'F-ANA
Medium: in vitro
Tested at: 200 nM
Setting: whole 15-mer aptamer, many near background
Added: Cy3 exosite-II aptamer, 400 nM
Direction: higher = stronger binding
Measurement: mean fluorescence intensity
Strand: GGTTGGTGTGGTTGG
Modification = 2'F-ANA at 1 2 3 5 6 11 13 15; result = 58 a.u.
Modification = 2'F-ANA at 2 7 8 9 10 11 12 14; result = 510 a.u.
Modification = 2'F-ANA at 2 3 6 7 8 13; result = 681 a.u.
Modification = 2'F-ANA at 1 2 3 11 13 15; result = 193 a.u.
Modification = 2'F-ANA at 2 3 5 6 7 8 9 10 12; result = 61.9 a.u.
Modification = 2'F-ANA at 1 3 6 7 8 11 12 14; result = 124 a.u.
Modification = 2'F-ANA at 2 5 6 7 11 12 13 15; result = 82.4 a.u.
Modification = 2'F-ANA at 1 3 4 5 7 9 10 11 13 14; result = 47.3 a.u.
Modification = 2'F-ANA at 3 4 8 13; result = 577 a.u.
Modification = 2'F-ANA at 1 4 6 9 10 11 12 14 15; result = 49.3 a.u.
Modification = 2'F-ANA at 2 6 9 11 12; result = 512 a.u.
Modification = 2'F-ANA at 2 3 4 6 7 8 10 12 13 14; result = 170 a.u.
Modification = 2'F-ANA at 5 6 7 8 14; result = 48.3 a.u.
Modification = 2'F-ANA at 2 3 5 6 10 11 13 14 15; result = 54.7 a.u.
Modification = 2'F-ANA at 4 5 8 10 12 15; result = 104 a.u.
Modification = 2'F-ANA at 4 5 6 7 10 11 13 15; result = 50.8 a.u.
Modification = 2'F-ANA at 1 3 4 6 7 11 12 13 15; result = 224 a.u.
Modification = 2'F-ANA at 1 2 3 4 5 6 9 11 14 15; result = 48 a.u.
Modification = 2'F-ANA at 2 5 6 7 10 11 13 14; result = 45 a.u.
Modification = 2'F-ANA at 1 3 4 5 6 7 11 12 13 15; result = 70.4 a.u.
Modification = 2'F-ANA at 2 3 5 7 9 10 11 12 15; result = 94.3 a.u.
Modification = 2'F-ANA at 1 3 6 9 12 13; result = 342 a.u.
Modification = 2'F-ANA at 1 6 12 14; result = 67.3 a.u.

Block 2
Target: Interferon regulatory factor 3, full length, phosphomimetic (IRF3, Homo sapiens, UniProt Q14653, residues 1-427, S386D/S396D/S398D/S402D/T404D/S405D)
Technique: protein-binding microarray
Form: double-stranded DNA, one strand shown
Medium: in vitro
Tested at: 2540 nM top
Setting: 60-bp whole probe
Added: salmon DNA 0.4 mg/ml
Relative to: random background probes
Direction: higher = stronger binding
Measurement: fitted relative affinity
All sequences stand within: GCCTAGCAC … GTCTTGATTCGCTTGACGCTGCTG
Target sequence (chain): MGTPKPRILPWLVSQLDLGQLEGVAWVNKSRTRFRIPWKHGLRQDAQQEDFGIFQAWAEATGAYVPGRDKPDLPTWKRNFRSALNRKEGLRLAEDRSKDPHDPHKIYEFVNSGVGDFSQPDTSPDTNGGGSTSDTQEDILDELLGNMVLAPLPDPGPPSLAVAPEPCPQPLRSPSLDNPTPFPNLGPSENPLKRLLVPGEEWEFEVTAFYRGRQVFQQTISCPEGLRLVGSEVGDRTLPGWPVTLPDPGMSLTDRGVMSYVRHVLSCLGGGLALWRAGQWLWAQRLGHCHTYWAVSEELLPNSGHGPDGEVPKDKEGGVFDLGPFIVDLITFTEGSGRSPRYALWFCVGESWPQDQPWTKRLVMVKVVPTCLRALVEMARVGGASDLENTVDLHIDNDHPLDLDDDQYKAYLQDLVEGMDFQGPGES
Strand = GACGGTCTCGGTTTAGGGACGTGCTAG; result = 1.99 z-score
Strand = CATTATTTCAATGCAAGGTGGTGCTAG; result = 0.898 z-score
Strand = TTAGGACTGGGTCTCGGTAAGTGCTAG; result = -0.66 z-score
Strand = GACGGTTGCGGGTTTCGGGACGTGCTA; result = 2.94 z-score
Strand = ACATGCTTCGAGATCTCCGAGTGCTAG; result = -0.234 z-score
Strand = GACAGTTTCCTTCTCCTGACGTGCTAG; result = 11.2 z-score
Strand = GACGGTCTCGGTTTCTGGACGTGCTAG; result = 2.88 z-score
Strand = GACGGTTTCGGGACTGGGCACGTGCTA; result = 4.79 z-score
Strand = GCCCCTCTCCTCTCAGGAGCTGTGCTA; result = 0.687 z-score
Strand = TTAGGTTTCCTTATCCATTAGTGCTAG; result = 8.55 z-score
Strand = TTAGGGTTCGACTTTCGGTTAGTGCTA; result = 1.33 z-score
Strand = TTAGGACTGCTTCTCCTTTGGTGCTAG; result = -0.23 z-score
Strand = GACGGTATCCTACTGCTAACGTGCTAG; result = 2.71 z-score
Strand = TCAATTTTCATTTTCCAACTGTGCTAG; result = 4.54 z-score
Strand = GACGGACTGGGACTGAGGACGTGCTAG; result = -0.916 z-score
Strand = TTTTTTCTACTTCTGTTTTTGTGCTAG; result = 2.33 z-score
Strand = TGTTGGTAATTTTGCTATTTGTGCTAG; result = -0.0433 z-score
Strand = GACGGTTTCCTTTTGCTGACGTGCTAG; result = 9.73 z-score
Strand = GTAGATCTCAGTCTCGATTAGTGCTAG; result = 0.669 z-score

Block 3
Target: Histone acetyltransferase KAT6A, winged helix 2, GST fusion (KAT6A, Homo sapiens, UniProt Q92794, residues 85-181)
Technique: protein binding microarray
Form: double-stranded DNA, one strand shown
Medium: in vitro
Tested at: not given
Setting: 8-mer, flanks averaged, mean of 2 arrays, mostly near background
Relative to: not given
Direction: higher = stronger binding
Measurement: E-score
Construct (chain): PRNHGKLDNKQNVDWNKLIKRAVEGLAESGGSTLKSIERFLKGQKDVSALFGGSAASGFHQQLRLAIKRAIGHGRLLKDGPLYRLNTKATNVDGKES
Strand = ATAGCCGA; result = -0.0679
Strand = CGCTTTAC; result = -0.145
Strand = TCAGGCCA; result = 0.0149
Strand = AATGGCCT; result = -0.0312
Strand = CTTAGGTA; result = -0.231
Strand = AATACGCC; result = -0.0303
Strand = CGTATACA; result = -0.0865
Strand = GTAGACGA; result = -0.0349
Strand = AAAAGCGA; result = 0.0815
Strand = AAAGAGCG; result = -0.0991
Strand = AAATTATC; result = 0.255
Strand = CACTCAAC; result = 0.055
Strand = GATCACCC; result = 0.0458
Strand = AGGATGTA; result = -0.176
Strand = GCCTGGAA; result = -0.0222
Strand = AATCGCCT; result = 0.181
Strand = ACGGAATC; result = -0.0879
Strand = ATACTGGA; result = -0.0112

Block 4
Target: Ras GTPase-activating protein-binding protein 1, full length (G3BP1, Homo sapiens, UniProt Q13283)
Chain of UniProt Q13283 (whole entry, looked up): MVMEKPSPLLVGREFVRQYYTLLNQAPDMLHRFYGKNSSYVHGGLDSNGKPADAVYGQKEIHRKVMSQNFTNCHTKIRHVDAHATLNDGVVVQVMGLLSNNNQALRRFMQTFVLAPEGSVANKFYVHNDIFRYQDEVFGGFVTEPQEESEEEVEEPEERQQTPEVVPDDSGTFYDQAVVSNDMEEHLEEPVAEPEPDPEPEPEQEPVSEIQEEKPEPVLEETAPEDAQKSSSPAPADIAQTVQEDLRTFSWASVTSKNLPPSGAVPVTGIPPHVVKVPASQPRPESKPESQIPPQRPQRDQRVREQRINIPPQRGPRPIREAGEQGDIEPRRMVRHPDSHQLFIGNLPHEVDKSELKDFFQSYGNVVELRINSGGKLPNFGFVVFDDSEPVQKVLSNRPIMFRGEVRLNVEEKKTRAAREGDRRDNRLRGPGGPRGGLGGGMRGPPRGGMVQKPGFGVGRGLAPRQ
Technique: RNA Bind-n-Seq
Form: RNA
Medium: in vitro
Tested at: 200 nM
Setting: whole 134-nt RNA, ends assumed
Added: 150 mM LiCl
Relative to: input library
Direction: higher = stronger binding
Measurement: log2 enrichment
Library: 7-deaza-guanosine replaces G
All sequences stand within: GGGAGUUCUACAGUCCGACGAUC … UGGAAUUCUCGGGUGUCAAGG
Strand = UCAAGUCCUGUGCUACACAUCGUAUGUACCGAAUCGGUUUUUGGAGGAAAAAGGAAAGUAUUAUGUUACGCCGUUCGGAUCUGCACUUCC; result = -0.227
Strand = UCCUGUGCUACACAUCGUAUGUACCGAAUCGGGAAAAAGGGUUUUUGGGUUUUUUUGGGAAAGUAUUAUGUUACGCCGUUCGGAUCUGCA; result = -1.65
Strand = GUCCUGUGCUACACAUCGUAUGUACCGAAUCGUGUGUGUGUGUGUGUGUGUGUGUGUGAAAGUAUUAUGUUACGCCGUUCGGAUCUGCAC; result = -0.798
Strand = CAAGUCCUGUGCUACACAUCGUAUGUACCGAAUCGGGGAGGGGAAAGGGGUGGGGAAAGUAUUAUGUUACGCCGUUCGGAUCUGCACUUC; result = 0.118
Strand = UCCUGUGCUACACAUCGUAUGUACCGAAUCGGGAAAAAGGGAAAAAAAGGGAAAAAGGGAAAGUAUUAUGUUACGCCGUUCGGAUCUGCA; result = 0.436
Strand = GUCCUGUGCUACACAUCGUAUGUACCGAAUCGGGGCCCCCGGGCCCCCGGGGCCCCCGGAAAGUAUUAUGUUACGCCGUUCGGAUCUGCA; result = -1.22
Strand = CACAGACAACACGCACCCACACAGACACAGAGGGAAGGGGUUGGGAUGGGGACAGGGUGCACAGCAGGGCGGGGUAGUACCCCAGCCCCU; result = 1.01
Strand = GCAGGAAGUAAAAACAAAUGGAAAUGCUUCGGAUAGUGGCAGGGGUGGGGGUUGCUAAGGAAAGGGUGGGAUGGGAGUGGAUAAAGAGUU; result = -0.0535
